Results pooled from the literature.
Each line is one published result; not all experiments were run side by side. Numbers after ± are the reported error.

| SMILES | test | test system | setting | how to read | measurement | value |
| --- | --- | --- | --- | --- | --- | --- |
| COC(=O)[C@H](CSSC(C)(C)[C@H](NC(=O)[C@H](CCC(=O)NC[C@H](O)[C@@H](O)[C@H](O)[C@H](O)CO)NC(=O)[C@H](CCC(=O)O)NC(=O)[C@H](CCC(=O)NC[C@H](O)[C@@H](O)[C@H](O)[C@H](O)CO)NC(=O)[C@H](CCC(=O)O)NC(=O)[C@H](CCC(=O)NC[C@H](O)[C@@H](O)[C@H](O)[C@H](O)CO)NC(=O)CC[C@H](NC(=O)c1ccc(NCc2cnc3nc(N)[nH]c(=O)c3n2)cc1)C(=O)O)C(=O)O)NC(=O)CC[C@H](NC(=O)c1ccc(NCc2cnc3nc(N)[nH]c(=N)c3n2)cc1)C(=O)O |  | Lewis rat, female, plasma | subcutaneous, 500 nmol/kg |  | terminal half-life | ~27.8 min |
| O=C(O)CC[C@H](NC(=O)N[C@@H](CCCCNC(=O)CCCCC[C@H](NC(=O)CCS[C@@H]1O[C@H](CO)[C@H](O)[C@H](O)[C@H]1O)C(=O)NCCCC[C@@H](NC(=O)[C@@H](Cc1ccccc1)NC(=O)[C@@H](Cc1ccc(O)c(I)c1)NC(=O)CCC(C(=O)O)N1CCN(CC(=O)O)CCN(CC(=O)O)CCN(CC(=O)O)CC1)C(=O)O)C(=O)O)C(=O)O (some centres unmarked) [gallium-68 labelled] |  | CB-17 SCID mice | 3 h post injection, biodistribution |  | tumour uptake | 3.85 ± 0.54 %ID/g |
| CC(C)C[C@H](NC(=O)C[C@H](O)[C@H](CC(C)C)NC(=O)[C@H](Cc1c[nH]cn1)NC(=O)CNC(=O)[C@@H](NC(=O)[C@H](C)NC(=O)[C@H](Cc1c[nH]c2ccccc12)NC(=O)[C@H](CCC(N)=O)NC(=O)[C@@H](Cc1ccccc1)NC(=O)CCOCCOCCOCCNC(=O)CN1CCN(CC(=O)O)CCN(CC(=O)O)CC1)C(C)C)C(N)=O [gallium-68 labelled] | radio-HPLC | nude mice, PC-3 tumour, tumour homogenate | intravenous, 37 MBq, 30 min |  | intact parent | 79.7% |
| N=C(N)NCCC[C@@H]1NC(=O)[C@H](CCCCNC(=S)Nc2ccc(CC3CN(CC(=O)O)CCN(CC(=O)O)CCN(CC(=O)O)CCN3CC(=O)O)cc2)NC(=O)[C@@H](Cc2ccc(O)cc2)NC(=O)[C@H](CC(=O)O)NC(=O)CNC1=O (some centres unmarked) [actinium-225 labelled] |  | U-87 MG tumour-bearing mice | 24 h |  | tumour to muscle ratio | 3.6 |
| N=C(N)NCCC[C@@H]1NC(=O)[C@H](CCCCNC(=O)CNC(=O)CNC(=O)CNC(=O)CC[C@H](NC(=O)CNC(=O)CNC(=O)CNC(=O)CN2CCN(CC(=O)O)CCN(CC(=O)O)CCN(CC(=O)O)CC2)C(=O)NCC(=O)NCC(=O)NCC(=O)NCCCC[C@@H]2NC(=O)[C@@H](Cc3ccccc3)NC(=O)[C@H](CC(=O)O)NC(=O)CNC(=O)[C@H](CCCNC(=N)N)NC2=O)NC(=O)[C@@H](Cc2ccccc2)NC(=O)[C@H](CC(=O)O)NC(=O)CNC1=O [indium-111 labelled] |  | female athymic nu/nu mice, liver | intravenous, 4 h |  | tissue uptake | 2.23 ± 0.05 %ID/g |
| CSCC[C@H](NC(=O)[C@H](CC(C)C)NC(=O)[C@H](Cc1c[nH]cn1)NC(=O)CNC(=O)[C@@H](NC(=O)[C@H](C)NC(=O)[C@H](Cc1c[nH]c2ccccc12)NC(=O)[C@H](CCC(N)=O)NC(=O)CCOCCOCCOCCOCCNC(=O)CN1CCN(CC(=O)O)CCN(CC(=O)O)CCN(CC(=O)O)CC1)C(C)C)C(N)=O [indium-111 labelled] |  | Swiss nu/nu mice, PC-3 xenograft | intravenous, 10 pmol, 1 h to 24 h post injection |  | tumour to kidney ratio change | 2.1 fold |
| CC(C)CC(CC(C)C)NC(=O)[C@H](Cc1cnc[nH]1)NC(=O)CNC(=O)[C@@H](NC(=O)[C@H](C)NC(=O)[C@H](Cc1c[nH]c2ccccc12)NC(=O)[C@H](CCC(N)=O)NC(=O)[C@@H](Cc1ccccc1)NC(=O)COCC(=O)Nc1ccc(CNC(=O)CN2CCN(CC(=O)O)CCN(CC(=O)O)CCN(CC(=O)O)CC2)cc1)C(C)C [lutetium-177 labelled] | SPECT/CT | NMRI-Foxn1 nu/nu mice, T47D xenograft | 4 MBq, 24 h post-injection, with: doxorubicin, two cycles | relative to: placebo | tumour uptake per volume | no effect |
| N=C(N)NCCC[C@@H]1NC(=O)[C@H](CCCCNC(=O)CC[C@H](NC(=O)CC[C@H](NC(=O)CN2CCN(CC(=O)O)CCN(CC(=O)O)CCN(CC(=O)O)CC2)C(=O)N[C@@H](CCC(=O)NCCCC[C@@H]2NC(=O)[C@@H](Cc3ccccc3)NC(=O)[C@H](CC(=O)O)NC(=O)CNC(=O)[C@H](CCCNC(=N)N)NC2=O)C(=O)NCCCC[C@@H]2NC(=O)[C@@H](Cc3ccccc3)NC(=O)[C@H](CC(=O)O)NC(=O)CNC(=O)[C@H](CCCNC(=N)N)NC2=O)C(=O)NCCCC[C@@H]2NC(=O)[C@@H](Cc3ccccc3)NC(=O)[C@H](CC(=O)O)NC(=O)CNC(=O)[C@H](CCCNC(=N)N)NC2=O)NC(=O)[C@@H](Cc2ccccc2)NC(=O)[C@H](CC(=O)O)NC(=O)CNC1=O [indium-111 labelled] |  | female athymic nu/nu mice, kidney | intravenous, 4 h |  | tissue uptake | 5.83 ± 0.7 %ID/g |

Repeated from above:
| SMILES | test | test system | setting | how to read | measurement | value |
| --- | --- | --- | --- | --- | --- | --- |
| COC(=O)[C@H](CSSC(C)(C)[C@H](NC(=O)[C@H](CCC(=O)NC[C@H](O)[C@@H](O)[C@H](O)[C@H](O)CO)NC(=O)[C@H](CCC(=O)O)NC(=O)[C@H](CCC(=O)NC[C@H](O)[C@@H](O)[C@H](O)[C@H](O)CO)NC(=O)[C@H](CCC(=O)O)NC(=O)[C@H](CCC(=O)NC[C@H](O)[C@@H](O)[C@H](O)[C@H](O)CO)NC(=O)CC[C@H](NC(=O)c1ccc(NCc2cnc3nc(N)[nH]c(=O)c3n2)cc1)C(=O)O)C(=O)O)NC(=O)CC[C@H](NC(=O)c1ccc(NCc2cnc3nc(N)[nH]c(=N)c3n2)cc1)C(=O)O |  | Lewis rat, female, plasma | subcutaneous, 500 nmol/kg |  | terminal half-life | ~27.8 min |
